Measurements pooled from the literature.
Protocols differ between the studies behind these lines. Several values in a cell are separate wells, animals, samples, runs or records. Numbers after ± are the reported error.
CASP6: Caspase-6 (CASP6, Homo sapiens, UniProt P55212)
UniProt P55212, sequence (whole entry, looked up): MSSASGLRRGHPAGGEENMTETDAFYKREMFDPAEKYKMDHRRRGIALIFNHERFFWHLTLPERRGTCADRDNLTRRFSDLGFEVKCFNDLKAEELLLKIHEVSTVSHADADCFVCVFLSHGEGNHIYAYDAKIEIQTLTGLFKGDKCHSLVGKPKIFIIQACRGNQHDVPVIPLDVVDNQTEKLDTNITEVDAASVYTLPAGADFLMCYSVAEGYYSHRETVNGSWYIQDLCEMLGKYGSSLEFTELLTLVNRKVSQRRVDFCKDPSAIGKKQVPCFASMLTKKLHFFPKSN
TDP1: Tyrosyl-DNA phosphodiesterase 1 (TDP1, Homo sapiens, UniProt Q9NUW8)
UniProt Q9NUW8, sequence (whole entry, looked up): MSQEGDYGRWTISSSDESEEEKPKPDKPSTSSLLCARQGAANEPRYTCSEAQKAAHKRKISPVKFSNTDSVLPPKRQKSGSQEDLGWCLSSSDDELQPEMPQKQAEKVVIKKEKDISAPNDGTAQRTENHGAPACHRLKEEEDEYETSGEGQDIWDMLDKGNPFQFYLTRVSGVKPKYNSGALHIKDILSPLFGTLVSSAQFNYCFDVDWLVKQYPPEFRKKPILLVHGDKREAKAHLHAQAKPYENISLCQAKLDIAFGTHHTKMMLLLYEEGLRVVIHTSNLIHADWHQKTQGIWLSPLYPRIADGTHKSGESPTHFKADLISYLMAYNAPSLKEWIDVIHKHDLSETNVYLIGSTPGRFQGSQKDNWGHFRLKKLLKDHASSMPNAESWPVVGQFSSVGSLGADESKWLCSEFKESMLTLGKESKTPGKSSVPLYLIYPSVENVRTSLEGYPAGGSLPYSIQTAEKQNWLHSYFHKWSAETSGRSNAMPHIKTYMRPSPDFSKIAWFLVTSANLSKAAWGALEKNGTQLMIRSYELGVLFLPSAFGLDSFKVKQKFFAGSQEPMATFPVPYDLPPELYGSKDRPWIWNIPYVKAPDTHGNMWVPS
Gria1: Glutamate receptor 1 (Gria1, Rattus norvegicus, UniProt P19490)
UniProt P19490, sequence (whole entry, looked up): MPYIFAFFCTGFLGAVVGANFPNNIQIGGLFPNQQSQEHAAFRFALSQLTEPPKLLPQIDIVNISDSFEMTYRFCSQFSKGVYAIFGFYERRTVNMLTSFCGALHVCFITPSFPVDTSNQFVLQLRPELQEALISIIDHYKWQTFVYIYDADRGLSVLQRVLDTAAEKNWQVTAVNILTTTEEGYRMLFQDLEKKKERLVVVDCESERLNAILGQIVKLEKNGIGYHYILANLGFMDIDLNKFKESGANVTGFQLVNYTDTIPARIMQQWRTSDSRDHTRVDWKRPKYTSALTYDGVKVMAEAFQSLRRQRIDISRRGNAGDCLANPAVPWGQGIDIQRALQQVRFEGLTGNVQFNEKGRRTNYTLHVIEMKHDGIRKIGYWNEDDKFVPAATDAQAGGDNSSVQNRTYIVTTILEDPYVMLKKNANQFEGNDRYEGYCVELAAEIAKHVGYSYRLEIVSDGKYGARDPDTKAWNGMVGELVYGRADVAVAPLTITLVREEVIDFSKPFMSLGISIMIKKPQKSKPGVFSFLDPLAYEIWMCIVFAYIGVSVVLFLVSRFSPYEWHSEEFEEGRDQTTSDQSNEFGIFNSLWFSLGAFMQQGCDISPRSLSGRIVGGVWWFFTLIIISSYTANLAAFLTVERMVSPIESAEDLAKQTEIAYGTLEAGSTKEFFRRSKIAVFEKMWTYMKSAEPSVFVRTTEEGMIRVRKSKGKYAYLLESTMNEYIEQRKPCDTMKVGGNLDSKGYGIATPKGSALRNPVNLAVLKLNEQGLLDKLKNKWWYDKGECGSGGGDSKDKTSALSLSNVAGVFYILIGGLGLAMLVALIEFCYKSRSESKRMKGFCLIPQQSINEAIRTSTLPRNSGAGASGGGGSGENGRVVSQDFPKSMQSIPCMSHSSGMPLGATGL
Uncharacterized protein: Uncharacterized protein (Trypanosoma brucei brucei, UniProt Q386Q8)
T1: dsDNA, duplex; chain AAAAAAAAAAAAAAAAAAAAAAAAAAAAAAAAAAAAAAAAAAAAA; chain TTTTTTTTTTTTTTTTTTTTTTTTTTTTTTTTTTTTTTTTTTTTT
T2: RNA, abasic bulge mismatch; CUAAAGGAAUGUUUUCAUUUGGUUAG
UniProt Q9CAJ0, sequence (whole entry, looked up): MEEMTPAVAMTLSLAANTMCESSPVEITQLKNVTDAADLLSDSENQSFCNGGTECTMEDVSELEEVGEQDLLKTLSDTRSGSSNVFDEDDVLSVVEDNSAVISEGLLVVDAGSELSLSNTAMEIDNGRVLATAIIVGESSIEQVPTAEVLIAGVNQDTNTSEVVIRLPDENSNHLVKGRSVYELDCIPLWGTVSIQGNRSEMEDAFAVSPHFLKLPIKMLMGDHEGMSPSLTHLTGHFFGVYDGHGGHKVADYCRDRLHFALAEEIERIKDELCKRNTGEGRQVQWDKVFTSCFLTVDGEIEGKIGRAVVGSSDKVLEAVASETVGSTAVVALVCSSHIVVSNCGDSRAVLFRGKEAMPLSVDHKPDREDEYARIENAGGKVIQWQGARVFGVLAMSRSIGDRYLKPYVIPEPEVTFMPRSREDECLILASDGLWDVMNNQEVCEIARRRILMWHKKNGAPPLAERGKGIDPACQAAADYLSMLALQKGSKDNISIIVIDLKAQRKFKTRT
UniProt Q96KC8, sequence (whole entry, looked up): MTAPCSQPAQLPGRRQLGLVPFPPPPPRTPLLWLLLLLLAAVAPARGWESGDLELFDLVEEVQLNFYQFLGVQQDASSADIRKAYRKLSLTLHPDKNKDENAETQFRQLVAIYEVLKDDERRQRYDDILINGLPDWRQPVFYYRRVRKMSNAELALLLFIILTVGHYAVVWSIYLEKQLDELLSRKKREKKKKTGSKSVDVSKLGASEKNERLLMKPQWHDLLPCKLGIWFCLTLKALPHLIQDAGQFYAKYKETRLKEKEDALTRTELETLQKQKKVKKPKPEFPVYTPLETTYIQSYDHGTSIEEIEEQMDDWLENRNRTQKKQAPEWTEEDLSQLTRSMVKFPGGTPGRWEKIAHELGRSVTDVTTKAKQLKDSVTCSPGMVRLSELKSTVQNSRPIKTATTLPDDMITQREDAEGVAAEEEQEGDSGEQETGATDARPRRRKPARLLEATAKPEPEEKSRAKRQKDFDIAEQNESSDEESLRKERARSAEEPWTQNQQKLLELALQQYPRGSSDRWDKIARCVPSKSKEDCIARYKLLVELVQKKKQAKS
UniProt Q9BQI3, sequence (whole entry, looked up): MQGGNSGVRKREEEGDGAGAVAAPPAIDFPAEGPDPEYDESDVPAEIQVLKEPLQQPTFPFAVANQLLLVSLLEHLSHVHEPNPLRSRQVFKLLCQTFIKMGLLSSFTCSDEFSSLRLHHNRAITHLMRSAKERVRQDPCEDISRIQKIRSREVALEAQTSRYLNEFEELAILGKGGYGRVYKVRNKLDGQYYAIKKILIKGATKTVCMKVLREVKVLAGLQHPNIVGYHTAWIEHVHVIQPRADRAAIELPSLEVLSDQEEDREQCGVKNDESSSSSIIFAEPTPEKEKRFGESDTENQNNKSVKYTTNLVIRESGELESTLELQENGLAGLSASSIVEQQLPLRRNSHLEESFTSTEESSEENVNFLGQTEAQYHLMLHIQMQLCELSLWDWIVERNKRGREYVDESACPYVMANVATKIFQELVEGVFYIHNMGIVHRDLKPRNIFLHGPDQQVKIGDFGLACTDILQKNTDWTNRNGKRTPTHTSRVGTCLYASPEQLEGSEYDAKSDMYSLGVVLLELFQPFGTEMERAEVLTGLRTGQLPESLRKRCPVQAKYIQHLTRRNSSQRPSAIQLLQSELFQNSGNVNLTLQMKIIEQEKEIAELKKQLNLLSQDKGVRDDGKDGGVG
UniProt P27338, sequence (whole entry, looked up): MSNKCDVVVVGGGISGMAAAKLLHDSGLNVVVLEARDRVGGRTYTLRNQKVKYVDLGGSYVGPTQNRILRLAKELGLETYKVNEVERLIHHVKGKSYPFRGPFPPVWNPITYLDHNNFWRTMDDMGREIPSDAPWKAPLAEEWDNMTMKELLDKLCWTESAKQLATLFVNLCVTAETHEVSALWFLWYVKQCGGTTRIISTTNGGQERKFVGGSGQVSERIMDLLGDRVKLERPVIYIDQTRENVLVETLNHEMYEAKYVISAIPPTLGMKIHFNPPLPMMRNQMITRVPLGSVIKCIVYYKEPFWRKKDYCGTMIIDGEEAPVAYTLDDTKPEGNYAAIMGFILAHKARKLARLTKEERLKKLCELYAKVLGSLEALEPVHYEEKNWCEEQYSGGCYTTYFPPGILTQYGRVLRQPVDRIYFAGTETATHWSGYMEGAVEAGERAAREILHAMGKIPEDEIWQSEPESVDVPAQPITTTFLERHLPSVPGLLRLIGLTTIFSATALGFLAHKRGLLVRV
UniProt Q9HB29, sequence (whole entry, looked up): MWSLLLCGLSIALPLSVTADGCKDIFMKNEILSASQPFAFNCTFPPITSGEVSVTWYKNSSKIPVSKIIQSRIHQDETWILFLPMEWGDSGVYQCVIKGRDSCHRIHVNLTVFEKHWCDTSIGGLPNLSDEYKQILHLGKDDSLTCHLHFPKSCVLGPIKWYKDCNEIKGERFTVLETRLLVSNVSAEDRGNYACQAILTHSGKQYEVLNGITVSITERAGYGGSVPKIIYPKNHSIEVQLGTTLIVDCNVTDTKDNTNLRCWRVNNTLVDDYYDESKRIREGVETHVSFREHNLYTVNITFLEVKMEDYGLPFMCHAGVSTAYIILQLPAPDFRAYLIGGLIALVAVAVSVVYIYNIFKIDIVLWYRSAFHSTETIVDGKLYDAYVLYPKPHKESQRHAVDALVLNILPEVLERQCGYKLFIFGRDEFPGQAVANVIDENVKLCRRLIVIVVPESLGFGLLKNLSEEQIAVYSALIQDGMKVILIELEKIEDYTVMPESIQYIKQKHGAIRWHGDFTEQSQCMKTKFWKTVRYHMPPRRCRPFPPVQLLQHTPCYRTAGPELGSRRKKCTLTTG
UniProt P06748, sequence (whole entry, looked up): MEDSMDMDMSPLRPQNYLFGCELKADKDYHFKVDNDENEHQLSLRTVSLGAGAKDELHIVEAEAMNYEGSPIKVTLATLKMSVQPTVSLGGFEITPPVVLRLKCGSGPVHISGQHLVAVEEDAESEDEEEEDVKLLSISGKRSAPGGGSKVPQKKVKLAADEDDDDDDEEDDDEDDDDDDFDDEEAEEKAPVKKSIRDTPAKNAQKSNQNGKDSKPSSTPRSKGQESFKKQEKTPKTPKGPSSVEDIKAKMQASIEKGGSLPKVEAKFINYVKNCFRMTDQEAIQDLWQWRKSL

| SMILES | target | test | system | setting | how to read | endpoint | result |
| --- | --- | --- | --- | --- | --- | --- | --- |
| N=C(N)NCCC[C@H](NC(=O)[C@@H]1CCCN1C(=O)[C@H](CCCNC(=N)N)NC(=O)[C@@H]1CCCN1C(=O)[C@H](CCCNC(=N)N)NC(=O)[C@@H]1CCCN1C(=O)[C@H](CCCNC(=N)N)NC(=O)[C@@H]1CCCN1C(=O)[C@H](CCCNC(=N)N)NC(=O)[C@@H]1CCCN1C(=O)[C@H](CCCNC(=N)N)NC(=O)[C@@H]1CCCN1C(=O)[C@H](CCCNC(=N)N)NC(=O)[C@@H]1CCCN1C(=O)[C@H](CCCNC(=N)N)NC(=O)[C@@H]1CCCN1C(=O)[C@H](CCCNC(=N)N)NC(=O)[C@@H]1CCCN1C(=O)[C@H](CCCNC(=N)N)NC(=O)[C@@H]1CCCN1C(=O)[C@H](CCCNC(=N)N)NC(=O)[C@@H]1CCCN1C(=O)[C@H](CCCNC(=N)N)NC(=O)[C@@H]1CCCN1C(=O)[C@H](CCCNC(=N)N)NC(=O)[C@@H]1CCCN1C(=O)[C@H](CCCNC(=N)N)NC(=O)[C@@H]1CCCN1C(=O)[C@H](CCCNC(=N)N)NC(=O)[C@@H]1CCCN1C(=O)[C@H](CCCNC(=N)N)NC(=O)[C@@H]1CCCN1C(=O)[C@H](CCCNC(=N)N)NC(=O)[C@@H]1CCCN1C(=O)[C@H](CCCNC(=N)N)NC(=O)[C@@H]1CCCN1C(=O)[C@H](CCCNC(=N)N)NC(=O)[C@@H]1CCCN1C(=O)[C@H](CCCNC(=N)N)NC(=O)[C@@H]1CCCN1C(=O)[C@H](CCCNC(=N)N)NC(=O)[C@@H]1CCCN1C(=O)[C@H](CCCNC(=N)N)NC(=O)[C@@H]1CCCN1C(=O)[C@H](CCCNC(=N)N)NC(=O)[C@@H]1CCCN1C(=O)[C@H](Cc1ccc(O)cc1)NC(=O)[C@H](CO)NC(=O)CN)C(=O)O | Nucleophosmin (NPM1, Homo sapiens, UniProt P06748) | SANS P(r) analysis |  | 2 molar excess over NPM1, 25 °C |  | radius of gyration | 104.5 ± 0.86 Å |
| O=[N+]([O-])c1cc(Br)cc([N+](=O)[O-])c1NS(=O)(=O)c1ccc(Br)cc1 | HAB1 (Arabidopsis thaliana, UniProt Q9CAJ0) | inhibitor |  | 5 µM, no PYL receptor | higher = more activity | phosphatase activity | 0.911 a.u. and 1.07 a.u. and 1.08 a.u. |
| CC(=O)N[C@@H](Cc1ccccc1Cl)C(=O)N[C@@H](CCC(=O)O)C(=O)N[C@@H](C)C(=O)N[C@@H](CC(=O)O)C(=O)COC(=O)c1c(C)cccc1C | CASP6 | enzyme activity, inhibitor |  |  |  | kinact/KI | 58400 M⁻¹ s⁻¹ |
| C=CC(=O)NC[C@H](NC(=O)[C@H](CC1CCCCC1)NC(=O)[C@H](CCC(N)=O)NC(C)=O)C(=O)N[C@@H](CC(C)C)C(=O)N[C@@H](Cc1ccccc1)C(=O)O | Beta sliding clamp (Escherichia coli, UniProt P0A988) | covalent adduct formation, mass spectrometry |  | covalent step |  | activation energy | 17.9 ± 7 kcal/mol |
| Cc1cc(C=NOCc2ccc(-c3nc4cc(-c5ccccc5)ccn4c3Nc3ccc(C(=O)O)cc3)cc2)sc1C (mixture of isomers) | TDP1 | enzyme activity, inhibitor |  | 100 µM, unpurified compound |  | inhibition | 61.8% |
| CNC(=O)C[C@H](Cc1ccc(C#N)cc1)NC(=O)c1cc(-c2ccc(CN[C@H](C)c3ccc(C)cc3)o2)ccc1Cl | TSSK4 (Homo sapiens, UniProt Q6SA08) | enzyme activity, inhibitor |  | 1 µM |  | activity vs control | 97% |
| O=C(O)Cc1cc2c(cc1C(=O)c1ccccc1Cl)OCO2 | Gria1 | glutamate-evoked current, whole-cell patch clamp | HEK-293T | concentration not given, glutamate alone after washout, with: glutamate |  | current amplitude after recovery | 891 ± 27 pA |
| N#CC(C=NOCc1ccc2nc(-c3ccccc3)c(Nc3ccc(C(=O)O)cc3)n2c1)c1nc2ccccc2o1 (centres unmarked) | TDP1 | enzyme activity, inhibitor |  | 100 µM, unpurified compound |  | inhibition | -13.1% |
| C#CCCCCNC(=O)c1ccc(N(C(=O)C=C)c2ccc(Br)cc2)cc1 | DnaJ homolog subfamily C member 1 (DNAJC1, Homo sapiens, UniProt Q96KC8) | mass spectrometry profiling, item: DNAJC1 | H460 cell lysate | 100 µM over 10 µM, UniProt Q96KC8 | baseline: high over low concentration | reactivity ratio | 1.69 |
| CC(=O)N[C@H](CCc1ccccc1)C(=O)N[C@@H](CCCC(=O)O)C(=O)N1C[C@H](O)C[C@H]1C(=O)N[C@@H](CC(=O)O)C(=O)COC(=O)c1c(C)cccc1C | CASP6 | enzyme activity, inhibitor |  |  |  | kinact/KI | 400 M⁻¹ s⁻¹ |
| COC(=O)Cc1cc2c(cc1C(=O)c1ccc(Cl)cc1Cl)OCO2 | Gria1 | glutamate-evoked current, whole-cell patch clamp | HEK-293T | concentration not given, pH 7.4, holding potential -60 mV, with: 10 mM glutamate |  | current amplitude | 388 ± 27 pA |
| CCCCCCCCn1c(CC)c(C)[n+](CCCCCCCC)c1CCC | T1, dsDNA, duplex | gel retardation |  | 60-1500 µM, 2 h, K+ 100 mM |  | binding | binds |
| Fc1ccc2nc(Nc3ccc(F)c(F)c3)nc(NC3CCCCC3)c2c1 | ADRB2 (Homo sapiens, UniProt P07550) | β-arrestin2 recruitment, PathHunter and GloSensor |  |  | baseline: GloSensor IC50 over PathHunter IC50 | bias factor | 32 fold |
| O=C1c2sc(-c3ccc(N4CCC(F)C4)nc3F)nc2CCN1c1cccnc1 (centres unmarked) | Nociceptin receptor (OPRL1, Homo sapiens, UniProt P41146) | ligand displacement, radioligand |  | 1 µM |  | inhibition | 2% |
| CC(=O)N[C@@H](CC(C)C)C(=O)N[C@@H](Cc1ccccc1)C(=O)N[C@@H](CO)C(=O)N[C@@H](CC(=O)O)C(=O)COC(=O)c1c(C)cccc1C | CASP6 | enzyme activity, inhibitor |  |  |  | kinact/KI | 3000 M⁻¹ s⁻¹ |
| C#Cc1ccc(C=NOCc2ccc(-c3nc4cc(-c5ccccc5)ccn4c3Nc3ccc(C(=O)O)cc3)cc2)cc1 | TDP1 | enzyme activity, inhibitor |  | 100 µM |  | inhibition | 91.7% |
| COc1ccc(C(=O)CC2(O)C(=O)Nc3cc(Cl)cc(Cl)c32)c(OC)c1 (centres unmarked) | Uncharacterized protein | inhibitor, coupled colorimetric | Trypanosoma brucei |  |  | Hill slope | -1.01 |
| CC(C)[C@@H]1NC(=O)[C@H](Cc2ccccc2)NC(=O)CSC[C@@H](C(N)=O)NC(=O)[C@H](CCC(=O)O)NC(=O)[C@H](CO)NC(=O)[C@H](Cc2c[nH]c3cccc(Cl)c23)NC(=O)[C@H](C2CCCCC2)NC(=O)[C@H](C(C)C)NC(=O)[C@H](Cc2ccc(O)cc2)NC(=O)[C@H](CC(=O)O)NC(=O)[C@H](Cc2c[nH]c3ccccc23)NC(=O)[C@H](Cc2ccc(N)nc2)NC(=O)[C@H](Cc2c[nH]c3ccc(Cl)cc23)NC(=O)[C@H](CCC(=O)O)NC1=O | Interleukin-1 receptor-like 2 (IL1RL2, Homo sapiens, UniProt Q9HB29) | reporter gene (SEAP), inhibitor, HEK-Blue IL-36R reporter | HEK-Blue IL-36R cells | 1.23 µM, 6 h, with: IL-36γ 0.3 ng/mL |  | remaining activity | 9.7% |

| SMILES | target | test | system | setting | how to read | endpoint | result |
| --- | --- | --- | --- | --- | --- | --- | --- |
| CC(=O)N1C(=O)C(C)C1c1ccccc1 (centres unmarked) | glpG (Escherichia coli, UniProt P09391) | enzyme activity, inhibitor, gel-based chimeric protein substrate |  |  |  | IC50 | inactive |
| CCCCCCCCCCCCC/C=C/C=O | NIT1 (Homo sapiens, UniProt Q86X76) | competitive isoTOP-ABPP | Ramos soluble proteome | 100 µM, 60 min, with: iodoacetamide probe | baseline: DMSO over compound-treated, higher = stronger cysteine blockade | isoTOP-ABPP competition ratio | 1.2 |
| Cc1cc(NC(=O)[C@H](O)c2cc(F)cc(F)c2)ccc1-c1cnc(N)c(C(=O)NC(C)C)c1 | EIF2AK1 (Homo sapiens, UniProt Q9BQI3) | binding, competition with immobilised ligand |  | 10 µM |  | remaining binding | 40% |
| O=C(O)c1ccc(Nc2c(-c3ccc(CON=Cc4c(Cl)cncc4Cl)cc3)nc3cc(-c4ccccc4)ccn23)cc1 | TDP1 | enzyme activity, inhibitor |  | 100 µM, unpurified compound |  | inhibition | 59.5% |
| CC(=O)N[C@@H](CC(=O)O)C(=O)N[C@@H](CCCC(=O)O)C(=O)N[C@@H](CC(C)C)C(=O)N[C@@H](CC(=O)O)C(=O)COC(=O)c1c(C)cccc1C | CASP6 | enzyme activity, inhibitor |  |  |  | kinact/KI | 243000 M⁻¹ s⁻¹ |
| CCN1CCN(Cc2ccc(C(=O)Nc3ccc(C)c(NCc4cnc5[nH]ccc5c4OC)c3)cc2C(F)(F)F)CC1 | Tyrosine-protein kinase ABL1, phosphorylated (ABL1, Homo sapiens, UniProt P00519, Y253F) | binding, competition with immobilised ligand |  | 1 µM |  | remaining binding | 1.1% |
| Cc1ccc2c(c1C)NC(=O)C2(O)CC(=O)c1ccc2c(c1)OCO2 (centres unmarked) | ppa (Escherichia coli, UniProt P0A7A9) | enzyme activity |  | counter-screen |  | Hill slope | -0.95 |
| Cc1nn(-c2ccccc2Cl)c(Cl)c1C=NOCc1ccc2nc(-c3ccccc3)c(Nc3ccc(C(=O)O)cc3)n2c1 | TDP1 | enzyme activity, inhibitor |  | 100 µM, unpurified compound |  | inhibition | 46.4% |
| CCOc1ccc(-c2nnc3n2N=C(c2cc(OC)ccc2OC)CS3)cc1 | Uncharacterized protein | inhibitor, coupled colorimetric | Trypanosoma brucei |  |  | Hill slope | 0.64 |
| CN(C)C=C(C=NOCc1ccc2nc(-c3ccccc3)c(Nc3ccc(C(=O)O)cc3)n2c1)c1ncc(C(F)(F)F)cc1Cl | TDP1 | enzyme activity, inhibitor |  | 100 µM, unpurified compound |  | inhibition | 21% |
| COc1ccc2[nH]c(-c3ccco3)nc2c1 | Core-binding factor subunit beta, with RUNX1 Runt domain (Homo sapiens, UniProt Q13951) | Runt domain binding, inhibitor, FRET |  |  |  | IC50 | inactive |
| COC(=O)[C@@]1(C)C=C(C(=O)Nc2cccc(C(=O)Nc3ccc(Nc4nccc(-c5cccnc5)n4)c(C)c3)c2)C(=O)CC1 | Mitogen-activated protein kinase 8, docking groove (MAPK8, Homo sapiens, UniProt P45983) | peptide binding, inhibitor, fluorescence polarization |  | 1.562 µM, with: JIP1 peptide probe |  | normalized fluorescence polarization | 0.901 |
| C[C@H](NCc1ccc(-c2cccc(F)c2)cc1)C(N)=O | MAOB (Homo sapiens, UniProt P27338) | inhibitor, Amplex Red |  | with: benzylamine | baseline: MAO-A IC50 over MAO-B IC50 | selectivity index | > 27.1 |
| CC[C@H](C)[C@@H]1NC(=O)[C@H](Cc2ccc(O)cc2)NC(=O)[C@H](Cc2ccccc2)NC(=O)[C@H](Cc2ccccc2)NC(=O)[C@H](Cc2ccccc2)NC(=O)CSC[C@@H](C(=O)N[C@@H](Cc2c[nH]cn2)C(N)=O)NC(=O)[C@H](CC(N)=O)NC(=O)[C@H](Cc2c[nH]c3ccccc23)NC1=O | Bromodomain-containing protein 4, BD1 (BRD4, Homo sapiens, UniProt O60885) | thermal stability, DSF |  | 100 µM |  | ΔTm | 0.59 °C |
| O=C(O)c1ccc(Nc2c(-c3ccccc3)nc3ccc(CON=Cc4c(O)ccc5cc([N+](=O)[O-])ccc45)cn23)cc1 | TDP1 | enzyme activity, inhibitor |  | 100 µM, unpurified compound |  | inhibition | 84.6% |
| Cc1ccc2ccc(NC(=O)OCCCN(CCCOC(=O)Nc3ccc4ccc(C)nc4n3)Cc3ccc(/N=N/c4ccc(CN(CCCOC(=O)Nc5ccc6ccc(C)nc6n5)CCCOC(=O)Nc5ccc6ccc(C)nc6n5)cc4)cc3)nc2n1 | T2, RNA, abasic bulge mismatch | thermal melting |  | before irradiation |  | binding | no binding |
| CCCCCCOc1ccc(C(=O)OCC[N+]2(C)CC=CCC2)cc1 (centres unmarked) | CHRM5 (Homo sapiens, UniProt P08912) |  | membranes | 10 µM, 15 h, no carbachol | baseline: control | basal binding | 1.14 ± 0.04 fold |

Excerpt of the above:
| SMILES | target | test | system | setting | how to read | endpoint | result |
| --- | --- | --- | --- | --- | --- | --- | --- |
| CCCCCCCCn1c(CC)c(C)[n+](CCCCCCCC)c1CCC | T1, dsDNA, duplex | gel retardation |  | 60-1500 µM, 2 h, K+ 100 mM |  | binding | binds |
| Fc1ccc2nc(Nc3ccc(F)c(F)c3)nc(NC3CCCCC3)c2c1 | ADRB2 (Homo sapiens, UniProt P07550) | β-arrestin2 recruitment, PathHunter and GloSensor |  |  | baseline: GloSensor IC50 over PathHunter IC50 | bias factor | 32 fold |
| O=C1c2sc(-c3ccc(N4CCC(F)C4)nc3F)nc2CCN1c1cccnc1 (centres unmarked) | Nociceptin receptor (OPRL1, Homo sapiens, UniProt P41146) | ligand displacement, radioligand |  | 1 µM |  | inhibition | 2% |
| CC(=O)N[C@@H](CC(C)C)C(=O)N[C@@H](Cc1ccccc1)C(=O)N[C@@H](CO)C(=O)N[C@@H](CC(=O)O)C(=O)COC(=O)c1c(C)cccc1C | CASP6 | enzyme activity, inhibitor |  |  |  | kinact/KI | 3000 M⁻¹ s⁻¹ |
| C#Cc1ccc(C=NOCc2ccc(-c3nc4cc(-c5ccccc5)ccn4c3Nc3ccc(C(=O)O)cc3)cc2)cc1 | TDP1 | enzyme activity, inhibitor |  | 100 µM |  | inhibition | 91.7% |
